Results collected from several papers.
Each numbered part is a random draw from the data of one study; scales do not carry over between parts. Positions count from the first letter of the parent shown.

Study 1 — technique: competition protein-binding microarray; form: double-stranded DNA, one strand shown; medium: in vitro; tested at: 2 µM; with: Pho4 competitor, 0.05 µM; direction: higher = stronger binding; constant ends, left off below: … GTCTTGATTCGCTTGACGCTGCTG
Target: Centromere-binding protein 1, full length, His-tagged (CBF1, Saccharomyces cerevisiae, UniProt P17106, residues 1-351)
Chain of UniProt P17106 (whole entry, looked up): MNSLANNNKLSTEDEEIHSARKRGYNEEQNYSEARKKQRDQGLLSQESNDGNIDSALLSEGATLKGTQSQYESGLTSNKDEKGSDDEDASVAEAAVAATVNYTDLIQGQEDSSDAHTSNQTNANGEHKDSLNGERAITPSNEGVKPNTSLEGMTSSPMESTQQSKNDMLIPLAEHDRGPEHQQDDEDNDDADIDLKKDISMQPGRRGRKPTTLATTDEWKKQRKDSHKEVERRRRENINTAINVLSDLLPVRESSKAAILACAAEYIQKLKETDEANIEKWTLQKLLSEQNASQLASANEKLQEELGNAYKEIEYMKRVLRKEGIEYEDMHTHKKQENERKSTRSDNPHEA
Setting: whole 60-bp probe, lowest competitor level
Sequence	fluorescence intensity [a.u.]
AAACAAATATTAGCTCGCGTGGCCGAATGGCAACGC	80.3
AGGCAGCAATATTGGCGTGTGCCGCTGAATACATTC	70.9
GGTTGTGGAGCATTCAGCGTGATGGCAAAAGGTGTT	128
CTTTTGCATCCGAGCCTCCTGGATAATAACTTCAAT	72.9
TAATATAACGCCTTTATCGTGGGACTCTTATTAACC	72.4
GGTACTCGCTGTTTGCACGTGGCAAAGACCCCATTT	1200
GTTGACAAACCCGGCCACGTGACTCGAGCTTAGAAG	7450
TTTCTGAGCGCCTACCACGTGGAGAGAGCTAAGTGC	667
CGTCCTAGCGATTGAAGGGTGGGTGCCATGAGGAAG	62.6
GGTCATTTCTGACAACACGTGTTTTCTGCCACTGCT	2180
TGCGCAACAACTTTTCACGTGTTCTTATGTCTAGAA	1400
GTCTTCTTGAATCCACACGTGAATACTACCTTTTTT	651
CGGCGGCAAGGTTGTGTCGTGATGGTCGTTGCATAG	66.4
GTATATTAAAGGCTGCATGTGGCTACGTCTATTAAA	99.3
CGTCCTAGCGATTGAAATGTGGGTGCCATGAGGAAG	72.9
AAGTCAAAACACCGTCACACGAAAACCATAACCTGT	92.9
GCTTGGAAGTCTCACCACGGGCAAATCTTCTTCTAA	65.8
TGCGCAACAACTTGACCCGTGGGTGTATGTCTAGAA	57.1
TGGACCTGGCATACTACCGTGCCAGTAAACGTAGGA	57.9
CTAACGAAGGTTTGGGACGTGGGTGACAAGCCAAGT	58.8
CTTTCCCGATCTTGGGACGTGGGTGTAGCACATTTG	78.9
GGTCATTGATGCTTGCATGTGCCGAGAAGCGGGACA	130
CGTCCTAGTGATTGTCACAAGACTTCCATGAGGAAG	144
GCCAGTTTTTCGTTGCTCGTGCAAAGTGAGACGGTG	117
TTAAGCCAAATTTAGCACATGCAGTGGCAGTGGCAA	110

Study 2 — target: NFE2L3, bZIP domain (human); technique: DHFR protein complementation; medium: yeast; reference: wild-type JUN-FOS pair; direction: higher = stronger binding
Setting: single substitutions, most at no-binding floor
Starting sequence: JUN, bZIP domain (human); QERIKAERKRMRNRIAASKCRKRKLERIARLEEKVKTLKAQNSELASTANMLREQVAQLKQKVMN; partner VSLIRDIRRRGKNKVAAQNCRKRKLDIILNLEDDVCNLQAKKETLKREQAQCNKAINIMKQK
Variant	binding fitness [natural log]
T48R	-1.54
R30C	-1.52
K36I	-1.55
A49V	-1.55
T48V	-1.46
S47A	-1.49
R53P	-1.53
L45N	-1.43
Q55V	-1.51
A40P	-1.51
I28D	-1.55
Q41E	-1.6
V35R	-1.51
L52S	-1.58
V35N	-1.45
A46C	-1.4
Q55R	-1.5
T37H	-1.32
K36A	-1.47
E44M	-1.4
A40N	-1.38
K34P	-1.49
A46P	-1.48
M51V	-1.51
A49F	-1.51

Study 3 — target: CCNB1, cyclin fold, Cln2 fusion (human); technique: yeast growth competition, sequencing; medium: yeast; setting: weak parent motif; reference: not given; direction: higher = stronger binding
Starting sequence: CDKN1A docking peptide (human); SKACRRLFGPVDS
Variant	normalised enrichment score
G9T	0.302
P10Q	-0.034
L7M	0.394
R6H	0.103
R6V	0.216
A3E	0.296
R6K	0.429
L7V	0.553
K2C	0.011
F8V	0.575
C4A	0.0701
K2P	0.244
P10H	0.21
F8M	0.449
G9F	0.703
G9P	0.444
V11T	0.503
A3D	-0.178
A3S	-0.219
R5Y	0.0105
C4N	0.396
A3W	0.344
P10Y	0.533
F8W	-0.0355
G9Y	0.643

Study 4 — technique: universal PBM; form: double-stranded DNA, one strand shown; medium: in vitro; tested at: not given; direction: higher = stronger binding
Target: Sal-like protein 4, full length isoform B (SALL4, Homo sapiens, UniProt Q9UJQ4-2, residues 1-616)
Setting: 8-mer, flanks averaged, mean of replicates
Sequence	E-score
CTCGTAAA	-0.00196
CAAGACAA	0.142
AAAGCGGC	-0.231
GCAGTTCA	-0.0617
CATATCAA	0.336
ATCGCTTA	-0.0421
CACCTGCC	-0.214
AGATAATG	0.266
CCGCGCAG	-0.351
CGCAGTAA	0.0939
CTGGTGCA	-0.192
GAAAGGCC	-0.196
CCAGTGTA	0.0407
ATTACTGA	0.233
ACATTCAG	0.083
CCTTCCCG	-0.252
ACAATACT	0.237
GAGGTTTA	0.0777
CGCAGGAA	-0.202
GAACACAA	0.0853
ATTGCAAT	0.182
AGGCAGTG	-0.0705
CGCTGTAA	0.0362
ATTCATTC	0.261
AATCGATC	-0.129

Study 5 — technique: DHFR PCA, dose-response; medium: yeast; setting: Hill fit, mean, not affinity; with: (+)-ABA, dose series; direction: lower = more sensitive
Target: ABI1, truncated, D143A, DHFR fusion (Arabidopsis thaliana, UniProt P49597)
Starting sequence: PYL1, truncated, DHFR fusion (Arabidopsis thaliana, UniProt Q8VZS8); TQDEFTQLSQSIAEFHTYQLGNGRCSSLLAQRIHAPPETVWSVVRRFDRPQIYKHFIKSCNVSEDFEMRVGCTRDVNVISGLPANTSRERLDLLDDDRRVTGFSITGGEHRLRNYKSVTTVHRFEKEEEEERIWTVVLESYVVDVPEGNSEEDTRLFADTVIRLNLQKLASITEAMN
Variant	ABA EC50 [µM]
T39M	2.08
S63K	2.85
L20Q	1.32
A13H	3.78
E151N	5.06
R32D	15.2
W134N	5.05
A35K	160
Q19D	2.6
A30Q	2.92
I105S	19.9
L8I	11
A35V	43.9
S11T	2.28
H34V	6.13
K168A	3.23
S9T	2.55
Q31S	95.3
F56N	732
A175F	4.47
D95F	96.7
E14G	51.9
E67I	3.77
H55N	1.71
S11N	6.94

Some of these lines once more (study 2):
Variant	binding fitness [natural log]
S47A	-1.49
R53P	-1.53
L45N	-1.43
Q55V	-1.51
A40P	-1.51
I28D	-1.55
Q41E	-1.6
V35R	-1.51
L52S	-1.58
V35N	-1.45
A46C	-1.4
Q55R	-1.5
T37H	-1.32
K36A	-1.47
E44M	-1.4
A40N	-1.38
K34P	-1.49
A46P	-1.48
M51V	-1.51
